Experimental data collected from several papers.
Compare with care: the assays were run in different laboratories.
Sequence of UniProt Q6V1X1 (whole entry, looked up): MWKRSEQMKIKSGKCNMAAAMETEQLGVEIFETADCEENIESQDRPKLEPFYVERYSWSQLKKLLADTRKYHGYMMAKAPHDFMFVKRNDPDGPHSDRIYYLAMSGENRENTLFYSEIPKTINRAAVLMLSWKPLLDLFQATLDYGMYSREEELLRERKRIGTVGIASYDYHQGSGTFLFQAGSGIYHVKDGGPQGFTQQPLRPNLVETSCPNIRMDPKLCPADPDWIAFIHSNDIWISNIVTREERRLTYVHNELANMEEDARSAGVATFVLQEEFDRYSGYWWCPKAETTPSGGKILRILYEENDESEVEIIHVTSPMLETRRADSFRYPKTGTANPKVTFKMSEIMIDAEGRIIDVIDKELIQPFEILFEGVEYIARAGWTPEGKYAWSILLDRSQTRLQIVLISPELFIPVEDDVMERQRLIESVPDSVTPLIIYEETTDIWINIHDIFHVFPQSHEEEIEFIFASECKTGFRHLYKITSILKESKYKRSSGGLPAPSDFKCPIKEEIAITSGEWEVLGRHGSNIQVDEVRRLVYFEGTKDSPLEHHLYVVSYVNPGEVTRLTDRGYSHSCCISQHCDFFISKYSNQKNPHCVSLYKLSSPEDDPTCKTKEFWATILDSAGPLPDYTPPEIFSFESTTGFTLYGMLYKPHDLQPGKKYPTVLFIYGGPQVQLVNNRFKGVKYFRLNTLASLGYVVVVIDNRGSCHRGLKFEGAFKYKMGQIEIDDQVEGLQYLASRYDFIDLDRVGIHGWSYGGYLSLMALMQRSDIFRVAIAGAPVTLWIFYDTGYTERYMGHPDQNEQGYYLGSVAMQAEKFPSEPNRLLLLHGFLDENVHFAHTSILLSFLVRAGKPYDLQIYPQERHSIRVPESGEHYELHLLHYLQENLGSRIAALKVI
Sequence of UniProt Q9NUJ1 (whole entry, looked up): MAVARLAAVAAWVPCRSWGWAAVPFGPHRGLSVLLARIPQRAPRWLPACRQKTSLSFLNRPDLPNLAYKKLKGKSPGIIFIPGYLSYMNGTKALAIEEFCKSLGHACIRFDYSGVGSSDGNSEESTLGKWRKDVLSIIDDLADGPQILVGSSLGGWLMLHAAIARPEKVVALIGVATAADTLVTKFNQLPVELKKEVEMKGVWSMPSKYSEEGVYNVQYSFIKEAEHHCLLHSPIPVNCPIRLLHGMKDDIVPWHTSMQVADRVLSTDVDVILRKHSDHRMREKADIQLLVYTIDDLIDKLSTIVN
Sequence of UniProt Q9P2K8 (whole entry, looked up): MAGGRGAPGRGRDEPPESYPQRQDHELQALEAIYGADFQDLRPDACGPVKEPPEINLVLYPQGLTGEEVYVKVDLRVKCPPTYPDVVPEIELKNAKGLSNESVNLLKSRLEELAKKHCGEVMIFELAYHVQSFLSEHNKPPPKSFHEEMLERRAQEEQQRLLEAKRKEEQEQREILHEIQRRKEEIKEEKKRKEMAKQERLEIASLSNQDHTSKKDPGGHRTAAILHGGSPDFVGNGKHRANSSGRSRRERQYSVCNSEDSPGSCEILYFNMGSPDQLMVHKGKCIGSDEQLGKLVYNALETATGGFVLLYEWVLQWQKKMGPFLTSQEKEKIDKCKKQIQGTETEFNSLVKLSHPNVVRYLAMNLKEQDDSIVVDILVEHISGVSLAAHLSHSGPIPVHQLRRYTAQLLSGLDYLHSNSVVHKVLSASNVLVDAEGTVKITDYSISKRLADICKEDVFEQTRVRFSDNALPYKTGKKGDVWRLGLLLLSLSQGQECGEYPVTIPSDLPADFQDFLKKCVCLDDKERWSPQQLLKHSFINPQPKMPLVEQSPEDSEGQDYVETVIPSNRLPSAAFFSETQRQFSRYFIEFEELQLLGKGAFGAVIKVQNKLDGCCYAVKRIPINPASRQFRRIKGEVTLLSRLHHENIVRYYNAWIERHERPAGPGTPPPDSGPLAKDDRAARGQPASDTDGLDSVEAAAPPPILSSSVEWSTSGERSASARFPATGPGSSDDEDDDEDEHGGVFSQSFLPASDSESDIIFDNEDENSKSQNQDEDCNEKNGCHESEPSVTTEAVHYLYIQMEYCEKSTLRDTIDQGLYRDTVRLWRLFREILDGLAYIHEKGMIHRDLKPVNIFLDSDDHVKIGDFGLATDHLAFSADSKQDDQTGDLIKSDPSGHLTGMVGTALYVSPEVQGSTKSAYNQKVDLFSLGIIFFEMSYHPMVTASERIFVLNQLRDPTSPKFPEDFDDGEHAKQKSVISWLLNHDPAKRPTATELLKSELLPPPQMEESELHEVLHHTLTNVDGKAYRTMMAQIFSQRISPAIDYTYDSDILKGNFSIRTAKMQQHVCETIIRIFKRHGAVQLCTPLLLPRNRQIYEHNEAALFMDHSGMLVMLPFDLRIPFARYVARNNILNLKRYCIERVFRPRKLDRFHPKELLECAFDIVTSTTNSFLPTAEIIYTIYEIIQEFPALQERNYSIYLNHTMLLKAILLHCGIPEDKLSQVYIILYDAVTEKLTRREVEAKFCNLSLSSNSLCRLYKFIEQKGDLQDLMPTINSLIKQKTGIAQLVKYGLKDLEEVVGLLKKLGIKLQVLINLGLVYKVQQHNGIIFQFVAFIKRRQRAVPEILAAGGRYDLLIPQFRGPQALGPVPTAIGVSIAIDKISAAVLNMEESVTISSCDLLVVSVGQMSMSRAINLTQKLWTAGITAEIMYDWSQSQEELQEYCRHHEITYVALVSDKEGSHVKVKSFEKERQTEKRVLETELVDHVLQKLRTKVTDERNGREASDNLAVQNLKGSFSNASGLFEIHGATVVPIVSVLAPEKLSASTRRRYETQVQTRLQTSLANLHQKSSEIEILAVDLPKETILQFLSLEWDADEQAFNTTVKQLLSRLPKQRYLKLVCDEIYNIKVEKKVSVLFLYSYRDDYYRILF
Sequence of UniProt O43684 (whole entry, looked up): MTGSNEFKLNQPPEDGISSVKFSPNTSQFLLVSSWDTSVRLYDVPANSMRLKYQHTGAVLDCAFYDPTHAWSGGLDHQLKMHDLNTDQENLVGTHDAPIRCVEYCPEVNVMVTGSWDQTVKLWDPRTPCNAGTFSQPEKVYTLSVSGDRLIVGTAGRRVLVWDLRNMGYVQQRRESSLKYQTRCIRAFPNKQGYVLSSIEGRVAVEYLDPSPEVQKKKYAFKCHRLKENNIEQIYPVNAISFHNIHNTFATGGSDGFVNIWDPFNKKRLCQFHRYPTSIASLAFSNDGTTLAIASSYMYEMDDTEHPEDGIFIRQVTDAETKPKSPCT
Sequence of UniProt Q96P65 (whole entry, looked up): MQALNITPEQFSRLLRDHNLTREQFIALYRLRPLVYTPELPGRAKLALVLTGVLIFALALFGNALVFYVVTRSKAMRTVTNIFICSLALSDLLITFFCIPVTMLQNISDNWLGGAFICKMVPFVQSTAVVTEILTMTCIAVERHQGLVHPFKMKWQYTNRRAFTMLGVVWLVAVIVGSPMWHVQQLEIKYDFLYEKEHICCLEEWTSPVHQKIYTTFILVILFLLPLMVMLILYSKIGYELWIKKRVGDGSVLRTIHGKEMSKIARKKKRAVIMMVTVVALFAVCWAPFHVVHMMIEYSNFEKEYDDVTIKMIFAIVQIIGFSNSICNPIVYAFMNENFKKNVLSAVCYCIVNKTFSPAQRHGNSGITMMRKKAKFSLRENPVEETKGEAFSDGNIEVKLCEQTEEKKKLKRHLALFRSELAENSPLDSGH
Sequence of UniProt Q96RI1 (whole entry, looked up): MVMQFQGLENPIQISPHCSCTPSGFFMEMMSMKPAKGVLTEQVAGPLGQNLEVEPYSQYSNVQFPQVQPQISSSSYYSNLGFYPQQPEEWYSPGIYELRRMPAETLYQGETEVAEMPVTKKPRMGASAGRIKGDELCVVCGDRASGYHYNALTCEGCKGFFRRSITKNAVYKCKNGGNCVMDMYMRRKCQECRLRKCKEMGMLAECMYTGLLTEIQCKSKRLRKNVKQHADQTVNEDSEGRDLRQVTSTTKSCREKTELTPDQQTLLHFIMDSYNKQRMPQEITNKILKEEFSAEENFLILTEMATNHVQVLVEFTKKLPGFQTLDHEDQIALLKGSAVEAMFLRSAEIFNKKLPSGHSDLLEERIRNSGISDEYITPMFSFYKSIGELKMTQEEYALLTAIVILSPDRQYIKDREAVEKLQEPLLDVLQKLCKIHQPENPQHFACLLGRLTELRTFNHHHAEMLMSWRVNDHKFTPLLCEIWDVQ
Sequence of UniProt Q9UHD2 (whole entry, looked up): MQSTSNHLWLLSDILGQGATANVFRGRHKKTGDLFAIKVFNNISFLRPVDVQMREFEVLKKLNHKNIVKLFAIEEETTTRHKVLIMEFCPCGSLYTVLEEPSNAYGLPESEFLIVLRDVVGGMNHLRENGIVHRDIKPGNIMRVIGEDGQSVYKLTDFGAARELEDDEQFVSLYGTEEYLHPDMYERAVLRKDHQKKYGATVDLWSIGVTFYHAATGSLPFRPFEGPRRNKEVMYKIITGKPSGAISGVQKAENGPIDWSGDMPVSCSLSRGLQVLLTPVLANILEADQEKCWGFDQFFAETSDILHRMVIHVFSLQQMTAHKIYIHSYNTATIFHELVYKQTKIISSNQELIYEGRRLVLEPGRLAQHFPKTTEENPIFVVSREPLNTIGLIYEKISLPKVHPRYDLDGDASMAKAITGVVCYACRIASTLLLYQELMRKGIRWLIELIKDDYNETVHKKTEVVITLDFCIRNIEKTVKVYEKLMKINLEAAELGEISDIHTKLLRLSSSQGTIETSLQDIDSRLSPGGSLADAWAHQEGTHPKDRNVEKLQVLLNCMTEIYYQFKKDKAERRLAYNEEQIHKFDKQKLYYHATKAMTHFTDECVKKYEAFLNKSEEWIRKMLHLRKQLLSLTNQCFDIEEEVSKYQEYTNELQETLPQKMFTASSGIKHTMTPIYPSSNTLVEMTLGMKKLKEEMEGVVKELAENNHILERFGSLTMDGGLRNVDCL

Structure (SMILES)	tested on	test	system	conditions	how to read	endpoint	result
COc1cc(N)c(Cl)cc1C(=O)NC1CN2CCC1CC2 (stereo not drawn)	PROKR2 (Homo sapiens, UniProt Q8NFJ6)	β-arrestin recruitment, TANGO luminescence, item: PK2		concentration not given	relative to: basal luminescence	log2 fold change	0.073
Nc1ncc(-c2nc(N3CCOCC3)nc(N3CCOCC3)n2)c(C(F)F)n1	L-type calcium channel, dihydropyridine site	radioligand binding, antagonist ligand		10 µM	relative to: control	remaining binding	98.5%
CN1CCN(c2cc(-c3ccncc3)c(-c3ccc4ccccc4c3)nn2)CC1	QRFPR (Homo sapiens, UniProt Q96P65)	agonist, FLIPR		12.5 µM		activation	6.3%
CC[C@H]1NC(=O)[C@@H]2CSC(=N2)[C@@H](Cc2ccccc2)N(C)C(=O)[C@@H]2CCCN2C(=O)[C@H](C(C)C)N(C)C(=O)[C@H](Cc2ccccc2)OC(=O)[C@H](C)[C@@H](C)NC(=O)[C@@H]([C@@H](C)O)NC(=O)[C@@H](CC(C)C)N(C)C(=O)[C@@H]2CSC1=N2	Dipeptidyl peptidase 8 (Homo sapiens, UniProt Q6V1X1)			20 µM	relative to: solvent control	remaining activity	23%
[2H]c1c([2H])c([C@]2([2H])CCCN2C(=O)C(C)(C)Oc2ccc3cn[nH]c3c2)c([2H])c([2H])c1C([2H])([2H])[2H]	TBK1 (Homo sapiens, UniProt Q9UHD2)	KINOMEscan		1 µM	relative to: DMSO control	remaining binding	84%
COc1cc2c(Oc3ccc4[nH]c(C)cc4c3F)ccnc2cc1OCC1(N)CC1		item: grade 1 or 2 abdominal distension	paediatric high-risk refractory sarcoma	8 mg		incidence of adverse event	0%
CO[C@H]1C[C@@H]2CC[C@@H](C)[C@@](O)(O2)C(=O)C(=O)N2CCCC[C@H]2C(=O)O[C@H]([C@H](C)C[C@@H]2CC[C@@H](OC(=O)NCCOCCOCCOCCOCCOCCOCCOCCOCCC(=O)N3CCc4cc(Cn5nc(-c6ccc7oc(N)nc7c6)c6c(N)ncnc65)ccc4C3)[C@H](OC)C2)C[C@@H](O)[C@H](C)/C=C(\C)[C@@H](O)[C@@H](OC)C(=O)[C@H](C)C[C@H](C)/C=C/C=C/C=C/1C			patients with advanced solid tumours	intravenous, 10 mg weekly, grade 3 or higher		vomiting incidence	0%
C[C@]1(CO)Cc2ncn(-c3ccc(C#N)c(Cl)c3)c2C(=O)O1			human, plasma	3 mg once daily, fasted		tmax at steady state	1 h
O=C(Nc1cccnn1)N1CCC(=Cc2cccc(Oc3ccc(C(F)(F)F)cn3)c2)CC1	KATP channel, hamster	binding		10 µM, added: [3H]glyburide		inhibition	15%
O=C(c1ccc(Cl)cc1)N1CCN2C(=O)N(OC(=O)N3CCOc4ccccc43)C(=O)C2C1 (stereo not drawn)	Palmitoyl-protein thioesterase ABHD10, mitochondrial (Homo sapiens, UniProt Q9NUJ1)	enzyme activity, inhibitor, MS-based ABPP	SW-620 conditioned medium	10 µM, 1 h, 37 °C	relative to: compound over DMSO, lower = stronger inhibition	median ratio	0.99
C[C@H]1CN(c2n[nH]c3nc(N[C@H]4CC[C@H](NS(=O)(=O)CCC(F)(F)F)CC4)ncc23)CCO1	Mitotic checkpoint protein BUB3 (Homo sapiens, UniProt O43684)	Kinobeads competition, item: BUB3		20 µM, unit not given	relative to: vehicle	remaining binding	1.24
CC[C@H](C)[C@@H]1NC(=O)[C@@H]2CCCN2C(=O)[C@H](CC(C)C)NC(=O)[C@H](CC(C)C)NC(=O)CNC(=O)[C@@H](NC(=O)[C@@H](NC(=O)[C@H](CC(=O)O)NC(=O)CNC(=O)[C@@H](NC(=O)[C@H](C)NC(=O)CNC(=O)[C@H](CCCCN)NC(=O)[C@H](CC(C)C)NC(=O)[C@H](CC(C)C)NC(=O)[C@H](CCCCN)NC(=O)CNC(=O)[C@@H](NC(=O)[C@@H](N)CC(C)C)C(C)C)C(C)C)C(C)C)CSSC[C@@H](C(=O)O)NC1=O		RNA-seq, item: Klra2 mRNA	mouse traumatic brain injury, frontal cortex and hippocampus	dose not given	relative to: TBI plus compound vs TBI	log2 fold change	-2.83
COc1cc(Nc2ncc(F)c(Nc3ccc4c(n3)NC(=O)C(C)(C)O4)n2)cc(OC)c1OC	PP1					IC50	> 10 µM
COc1ccc(N2C(=O)N(c3c(C)cccc3Cl)Cc3cnc(Nc4ccc(C5CCN(C)CC5)cc4OC)nc32)nc1	EIF2AK4 (Homo sapiens, UniProt Q9P2K8)	kinase activity		0.5 µM		inhibition	0.375%
CC(=O)C1C(=O)c2ccccc2C1=O	Bile acid receptor (NR1H4, Homo sapiens, UniProt Q96RI1)	coactivator recruitment, TR-FRET				IC50	inactive

Some of these lines once more:
Structure (SMILES)	tested on	test	system	conditions	how to read	endpoint	result
COc1cc(N)c(Cl)cc1C(=O)NC1CN2CCC1CC2 (stereo not drawn)	PROKR2 (Homo sapiens, UniProt Q8NFJ6)	β-arrestin recruitment, TANGO luminescence, item: PK2		concentration not given	relative to: basal luminescence	log2 fold change	0.073
COc1ccc(N2C(=O)N(c3c(C)cccc3Cl)Cc3cnc(Nc4ccc(C5CCN(C)CC5)cc4OC)nc32)nc1	EIF2AK4 (Homo sapiens, UniProt Q9P2K8)	kinase activity		0.5 µM		inhibition	0.375%
